Measurements of several laboratories.
Compare with care: the assays were run in different laboratories.
Target: Homeodomain-interacting protein kinase 4 (HIPK4, Homo sapiens, UniProt Q8NE63)

SMILES | assay | setting | how to read | quantity | result
NC(=O)[C@@H](O)C[C@H]1CCc2sc3ncnc(O[C@H]4CC[C@H](N5CCOCC5)CC4)c3c21 | enzyme activity, inhibitor | 10 µM | – | inhibition | 8%
Cc1ccc(-c2c(/C=C(\C#N)C(=O)NC(C)C)n(CCCO)c3ncnc(N)c23)cc1 | cell-free assay, competition with immobilised ligand | 1 µM | – | remaining binding | 71%
C=CC(=O)N1CCCC(n2c(=O)c3ncccc3n(Cc3ccc(Oc4ccccc4)cc3)c2=O)C1 (stereo not shown) | cell-free assay, competition with immobilised ligand | 1 µM | – | remaining binding | 76%
Nc1ncc(-c2cc(-c3cnn(CC(F)(F)F)c3)ncc2F)nc1C(=O)NC1CNCC(F)C1 (stereo not shown) | enzyme activity | 1 µM | reference: DMSO control | remaining activity | 87.7%
COc1cc(Nc2nccc(-c3cnn4nc(OC)ccc34)n2)cc(C(F)(F)F)c1 | binding, competition with immobilised ligand | 1 µM | – | remaining binding | 100%
CCn1cc(C(=O)O)c(=O)c2c(N)c(F)c(NC3CCCCC3)cc21 | kinase activity | 0.1 µM, together with: ATP at Km | – | inhibition | -0.7%
CNC1C[S+]2CC[S+]3CC[S+](C1)[Ru-4]321([N]=C=S)[n]2c3ccc(OC)cc3c3c4c(c5cc(F)c[n+]1c5c32)C(=O)NC4=O (stereo not shown) | KinomeScan | 0.1 µM | reference: untreated | remaining binding | 73%
C=CC(=O)N1CCc2ccc(-n3c(=O)ccc4cnc5ccc(-c6cnn(C)c6)cc5c43)cc21 | KINOMEscan | 1 µM | reference: DMSO control | remaining binding | 99%
Cc1cc(NC(=O)[C@H](O)c2cc(F)cc(F)c2)ccc1-c1cnc(N)c(C(=O)NC(C)C)c1 | binding, competition with immobilised ligand | 0.1 µM | – | remaining binding | 100%
Cc1cccc(O[C@H]2CCC[C@@H](C(C)CNCc3ccncc3)C2)c1 (relative stereo) | enzyme activity, inhibitor | 1 µM | – | inhibition | 0%
C=CC(=O)N1Cc2nc(-c3cc(-c4cc(Cl)cnc4Cl)c(F)cc3F)n(-c3ccncn3)c2C1 | cell-free assay, inhibitor | 1 µM | – | inhibition | 3.9%
C=CC(=O)Nc1cccc(-c2cnc3[nH]cc(C(=O)NC(C)(C)C)c3n2)c1 | enzyme activity, inhibitor | 0.1 µM | – | inhibition | 37%
CCN1CCN(Cc2ccc(C(=O)Nc3ccc(C)c(NCc4cnc5[nH]ccc5c4OC)c3)cc2C(F)(F)F)CC1 | binding, competition with immobilised ligand | 1 µM | – | remaining binding | 22%
